Measured values pooled from the literature.
Compare with care: the assays were run in different laboratories. ± marks the error that the study gave.

| SMILES | cell line | test | test system | setting | how to read | EC50 [nM] |
| --- | --- | --- | --- | --- | --- | --- |
| COc1cc(-c2ccccc2)ncc1C(=O)Nc1ccc2c(=O)[nH]c(-c3ccc(C(C)(C)O)cc3)nc2c1 | Apc Q1405X mutant organoids | organoid area, live-cell imaging | mouse small intestinal organoids | 144 h, Tnks1 genotype Tnks1-/- | – | 88.6 |
| CCn1cc(-c2cc(Cn3ccnc3)cc3c2CCN([C@H](c2cc(OC)ccn2)C2CC2)C3=O)c(C(F)(F)F)n1 | Farage | cell growth | – | 120 h | – | 3480 |
| c1ccc(COc2ccc(Nc3ccc4ncc(OCC5CCNCC5)nc4c3)cc2)cc1 | NB-4 | cell proliferation, XTT | – | 7 days | – | 1500 ± 110 |
| C=CC[C@@H]1/C=C(\C)C[C@H](C)C[C@H](OC)[C@H]2O[C@@](O)(C(=O)C(=O)N3CCCC[C@H]3C(=O)O[C@H](/C(C)=C/[C@@H]3CC[C@@H](O)[C@H](OC)C3)[C@H](C)[C@@H](O)CC1=O)[C@H](C)C[C@@H]2OC | Jurkat wild type | NFAT luciferase reporter | – | – | – | 0.0138 |
| CCn1cc(-c2cc(Cn3ccoc3=N)cc3c2CCN([C@@H](C)c2cc(OC)ccn2)C3=O)c(C(F)(F)F)n1 | RT-4 | cell growth, inhibitor | – | 120 h | – | 651 |
| C[C@]12CCCN1CC1=NNC(=O)c3cc(F)cc4[nH]c2c1c34 | SNU1 gastric cancer cells | cell viability | – | concentration not given, added: with temozolomide | – | 4300 |
| c1cc(-c2cc3ncc(OCC4CCNCC4)nc3cc2-c2cccc(N3CCCCC3)c2)cc(N2CCCCC2)c1 | NB-4 | cell proliferation, XTT | – | 7 days | – | 1300 ± 130 |
| Cn1cnc([N+](=O)[O-])c1Sc1nc(N)nc2[nH]cnc12 | HEK-293T ATF4-FLuc reporter | reporter gene, activator | – | – | – | > 9960 |
| CC(C)Nc1ccnc(Nc2cccc(-c3cnccn3)c2)n1 | MOLM-13 (FLT3-ITD/D835Y) | cell viability, MTT | – | 72 h | – | 77 |
| Fc1ccc(Oc2ccc(Nc3ccc4ncc(OCC5CCNCC5)nc4c3)cc2)cc1 | NB-4 | cell proliferation, XTT | – | 7 days | – | 2700 ± 160 |
| Cc1nn(-c2nc3c(F)cc(F)cc3s2)c(O)c1C(c1ccc(C(F)(F)F)cc1)c1c(C)nn(-c2nc3c(F)cc(F)cc3s2)c1O | THP1-Dual | IFNB1 luciferase reporter, inhibitor | – | added: HT-DNA | – | 11600 ± 600 |
| CC(C)(C)C(=O)ONc1nc2nonc2nc1Nc1ccccc1F | L6 rat myoblasts | oxygen consumption rate, Seahorse XF analyzer | – | – | – | 6200 |
| CC(=O)c1ccc(-c2cccc(NC(=O)CCc3cccc4c3B(O)OC4)c2)cc1 | HeLa CPSF3 Y207H mutant | transcriptional read-through, RT-qPCR, measured: SCARF1 read-through mRNA downstream of RILP | – | – | relative to: GAPDH | 704 |
| C=C(NC(=O)C(=C)NC(=O)c1csc(C2=N[C@@H]3c4csc(n4)[C@H]4NC(=O)c5csc(n5)[C@H]([C@](C)(O)[C@@H](C)O)NC(=O)[C@H]5CSC(=N5)/C(=C/C)NC(=O)[C@H]([C@@H](C)O)NC(=O)c5csc(n5)[C@]3(CC2)NC(=O)[C@H](C)NC(=O)C(=C)NC(=O)[C@H](C)NC(=O)[C@H]([C@@H](C)CC)N[C@@H]2C=Cc3c([C@H](C)O)cc(nc3[C@H]2O)C(=O)O[C@@H]4C)n1)C(N)=O | H-MESO-1 | cell viability, crystal violet | – | 48 h | – | 910 ± 30 |
| c1cncc(-c2cccc(Nc3nccc(NC4CCCCC4)n3)c2)c1 | MOLM-13 (FLT3-ITD) | cell viability, MTT | – | 72 h | – | 620 |
| COc1cnc2cccc(N3CCc4c(cc(Cn5ccnc5C)cc4-c4cn(C)nc4C(F)(F)F)C3=O)c2c1 | MCAS | cell growth | – | 120 h | – | 17900 |
| CC(C)Nc1ccnc(Nc2cccc(-c3cccnc3)c2)n1 | MOLM-13 (FLT3-ITD/D835Y) | cell viability, MTT | – | 72 h | – | 82 |
| COC(=O)c1ccccc1-c1c2ccc(=N)c(Br)c-2oc2c(Br)c(N)ccc12 | HEK-293T ATF4-FLuc reporter | reporter gene, activator | – | – | – | > 9960 |

Excerpt of the above:
| SMILES | cell line | test | test system | setting | how to read | EC50 [nM] |
| --- | --- | --- | --- | --- | --- | --- |
| Fc1ccc(Oc2ccc(Nc3ccc4ncc(OCC5CCNCC5)nc4c3)cc2)cc1 | NB-4 | cell proliferation, XTT | – | 7 days | – | 2700 ± 160 |
| Cc1nn(-c2nc3c(F)cc(F)cc3s2)c(O)c1C(c1ccc(C(F)(F)F)cc1)c1c(C)nn(-c2nc3c(F)cc(F)cc3s2)c1O | THP1-Dual | IFNB1 luciferase reporter, inhibitor | – | added: HT-DNA | – | 11600 ± 600 |
